Published values gathered from unrelated publications.
Numbers after ± are the reported error.
EPHX2: Bifunctional epoxide hydrolase 2 (EPHX2, Homo sapiens, UniProt P34913)
UniProt P34913, sequence (whole entry, looked up): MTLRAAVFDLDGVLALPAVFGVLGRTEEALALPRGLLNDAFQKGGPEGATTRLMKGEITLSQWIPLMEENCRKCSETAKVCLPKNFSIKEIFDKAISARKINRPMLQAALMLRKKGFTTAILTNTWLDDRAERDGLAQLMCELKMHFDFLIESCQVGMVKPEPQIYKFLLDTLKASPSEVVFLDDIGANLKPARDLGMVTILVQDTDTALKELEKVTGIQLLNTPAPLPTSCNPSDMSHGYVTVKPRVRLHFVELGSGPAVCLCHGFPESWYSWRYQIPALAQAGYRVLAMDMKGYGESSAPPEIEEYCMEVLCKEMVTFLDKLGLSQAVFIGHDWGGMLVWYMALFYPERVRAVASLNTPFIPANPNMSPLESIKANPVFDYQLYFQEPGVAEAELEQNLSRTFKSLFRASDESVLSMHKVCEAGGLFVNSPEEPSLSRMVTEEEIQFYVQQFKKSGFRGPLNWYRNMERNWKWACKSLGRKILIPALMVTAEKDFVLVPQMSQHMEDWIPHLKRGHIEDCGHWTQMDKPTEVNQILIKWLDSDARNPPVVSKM
CES2: Cocaine esterase (CES2, Homo sapiens, UniProt O00748)
UniProt O00748, sequence (whole entry, looked up): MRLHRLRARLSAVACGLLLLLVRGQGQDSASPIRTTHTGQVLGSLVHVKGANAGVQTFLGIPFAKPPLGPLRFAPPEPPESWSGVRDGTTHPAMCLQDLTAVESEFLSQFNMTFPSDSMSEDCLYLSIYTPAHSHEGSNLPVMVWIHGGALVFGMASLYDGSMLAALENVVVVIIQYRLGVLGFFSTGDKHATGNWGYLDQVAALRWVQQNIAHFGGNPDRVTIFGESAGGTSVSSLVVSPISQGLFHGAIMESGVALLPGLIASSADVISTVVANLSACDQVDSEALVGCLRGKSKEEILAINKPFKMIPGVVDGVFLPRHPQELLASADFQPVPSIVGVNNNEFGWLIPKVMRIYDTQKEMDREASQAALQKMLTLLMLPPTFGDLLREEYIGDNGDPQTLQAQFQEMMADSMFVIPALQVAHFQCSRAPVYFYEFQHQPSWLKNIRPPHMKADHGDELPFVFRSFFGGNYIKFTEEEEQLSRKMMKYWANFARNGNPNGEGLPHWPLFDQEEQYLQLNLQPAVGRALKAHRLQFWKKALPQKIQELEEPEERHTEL
PGR: Progesterone receptor (PGR, Homo sapiens, UniProt P06401)
UniProt P06401, sequence (whole entry, looked up): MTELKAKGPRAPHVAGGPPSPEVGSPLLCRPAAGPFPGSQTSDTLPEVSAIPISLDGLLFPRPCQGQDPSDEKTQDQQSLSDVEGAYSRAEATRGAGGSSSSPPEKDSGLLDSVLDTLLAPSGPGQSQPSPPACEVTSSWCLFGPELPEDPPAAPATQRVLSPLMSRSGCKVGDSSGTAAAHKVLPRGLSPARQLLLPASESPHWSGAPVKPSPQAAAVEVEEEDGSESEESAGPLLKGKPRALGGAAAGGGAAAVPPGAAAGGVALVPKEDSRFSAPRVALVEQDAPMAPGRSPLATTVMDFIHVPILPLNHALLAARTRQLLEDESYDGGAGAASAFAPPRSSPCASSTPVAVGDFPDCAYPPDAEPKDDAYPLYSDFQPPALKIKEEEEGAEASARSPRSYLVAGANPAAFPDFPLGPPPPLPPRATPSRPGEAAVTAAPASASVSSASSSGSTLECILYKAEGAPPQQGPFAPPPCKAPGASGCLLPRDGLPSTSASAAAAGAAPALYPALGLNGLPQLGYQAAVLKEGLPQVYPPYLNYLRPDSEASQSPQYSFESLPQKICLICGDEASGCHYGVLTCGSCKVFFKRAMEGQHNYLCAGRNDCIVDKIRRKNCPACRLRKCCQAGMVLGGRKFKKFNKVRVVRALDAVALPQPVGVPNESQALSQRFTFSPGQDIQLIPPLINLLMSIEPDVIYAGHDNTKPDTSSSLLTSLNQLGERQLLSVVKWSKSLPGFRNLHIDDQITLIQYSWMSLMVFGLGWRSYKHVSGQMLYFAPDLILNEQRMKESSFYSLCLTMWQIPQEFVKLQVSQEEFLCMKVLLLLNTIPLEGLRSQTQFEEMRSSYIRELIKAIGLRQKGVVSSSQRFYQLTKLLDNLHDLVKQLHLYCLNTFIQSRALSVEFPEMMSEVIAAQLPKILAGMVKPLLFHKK
UniProt P16257, sequence (whole entry, looked up): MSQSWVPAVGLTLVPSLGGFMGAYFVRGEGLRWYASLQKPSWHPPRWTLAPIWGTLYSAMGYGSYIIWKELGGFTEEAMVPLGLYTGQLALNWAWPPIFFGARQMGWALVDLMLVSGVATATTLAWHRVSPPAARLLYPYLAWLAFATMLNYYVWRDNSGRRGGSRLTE
UniProt P07550, sequence (whole entry, looked up): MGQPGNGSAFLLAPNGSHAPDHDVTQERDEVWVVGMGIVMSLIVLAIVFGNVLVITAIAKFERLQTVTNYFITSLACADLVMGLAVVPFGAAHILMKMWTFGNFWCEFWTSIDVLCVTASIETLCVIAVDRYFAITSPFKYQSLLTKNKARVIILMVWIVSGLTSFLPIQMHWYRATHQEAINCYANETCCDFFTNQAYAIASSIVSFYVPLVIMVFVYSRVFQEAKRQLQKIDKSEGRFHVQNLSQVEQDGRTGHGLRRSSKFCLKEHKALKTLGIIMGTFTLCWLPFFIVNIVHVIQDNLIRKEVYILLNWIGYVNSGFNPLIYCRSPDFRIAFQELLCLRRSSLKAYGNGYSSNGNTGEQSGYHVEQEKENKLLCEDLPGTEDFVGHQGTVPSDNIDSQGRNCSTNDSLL
UniProt P19438, sequence (whole entry, looked up): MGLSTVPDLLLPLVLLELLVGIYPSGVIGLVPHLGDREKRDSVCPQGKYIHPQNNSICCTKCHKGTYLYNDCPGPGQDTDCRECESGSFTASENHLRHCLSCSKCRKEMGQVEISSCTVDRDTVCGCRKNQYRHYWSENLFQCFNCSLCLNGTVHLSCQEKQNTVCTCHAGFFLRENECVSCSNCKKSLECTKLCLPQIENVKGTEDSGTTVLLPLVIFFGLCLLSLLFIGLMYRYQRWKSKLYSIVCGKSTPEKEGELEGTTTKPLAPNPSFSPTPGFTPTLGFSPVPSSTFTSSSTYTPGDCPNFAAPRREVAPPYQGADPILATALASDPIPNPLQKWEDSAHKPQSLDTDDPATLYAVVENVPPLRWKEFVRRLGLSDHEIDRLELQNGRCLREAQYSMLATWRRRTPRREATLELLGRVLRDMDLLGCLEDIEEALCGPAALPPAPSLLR
UniProt P63079, sequence (whole entry, looked up): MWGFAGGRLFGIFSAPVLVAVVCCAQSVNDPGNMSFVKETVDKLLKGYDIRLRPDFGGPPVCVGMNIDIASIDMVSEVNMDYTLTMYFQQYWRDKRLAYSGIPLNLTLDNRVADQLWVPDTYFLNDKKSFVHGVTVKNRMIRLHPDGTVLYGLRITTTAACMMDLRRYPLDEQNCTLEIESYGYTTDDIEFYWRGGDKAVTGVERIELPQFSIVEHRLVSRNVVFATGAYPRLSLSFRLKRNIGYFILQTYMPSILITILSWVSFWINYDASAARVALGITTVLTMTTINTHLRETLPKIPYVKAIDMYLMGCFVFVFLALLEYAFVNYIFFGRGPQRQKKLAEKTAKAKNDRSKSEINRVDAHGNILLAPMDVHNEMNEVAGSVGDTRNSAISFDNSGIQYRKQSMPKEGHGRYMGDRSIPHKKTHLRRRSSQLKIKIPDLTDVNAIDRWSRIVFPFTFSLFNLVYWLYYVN
UniProt P41143, sequence (whole entry, looked up): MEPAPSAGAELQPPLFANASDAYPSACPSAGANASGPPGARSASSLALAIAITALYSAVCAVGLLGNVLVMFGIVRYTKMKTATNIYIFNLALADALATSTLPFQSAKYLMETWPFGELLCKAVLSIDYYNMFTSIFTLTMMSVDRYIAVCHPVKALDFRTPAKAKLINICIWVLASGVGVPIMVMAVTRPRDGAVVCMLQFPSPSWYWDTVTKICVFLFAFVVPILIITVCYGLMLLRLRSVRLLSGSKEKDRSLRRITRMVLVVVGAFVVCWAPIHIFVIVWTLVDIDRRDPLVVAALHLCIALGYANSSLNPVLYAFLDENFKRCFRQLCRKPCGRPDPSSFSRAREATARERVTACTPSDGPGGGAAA
UniProt Q5F3C1, sequence (whole entry, looked up): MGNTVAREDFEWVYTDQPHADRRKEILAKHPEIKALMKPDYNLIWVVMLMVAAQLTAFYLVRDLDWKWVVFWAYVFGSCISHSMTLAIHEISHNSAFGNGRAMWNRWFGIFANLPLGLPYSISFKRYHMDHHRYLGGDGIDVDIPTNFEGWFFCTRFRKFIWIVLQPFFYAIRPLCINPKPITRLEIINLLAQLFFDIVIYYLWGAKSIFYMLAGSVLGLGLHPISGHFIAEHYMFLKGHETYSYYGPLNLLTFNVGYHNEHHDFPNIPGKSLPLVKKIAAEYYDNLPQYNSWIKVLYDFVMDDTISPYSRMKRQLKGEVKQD

SMILES = CCCCCCCCCCCCCCCOC(=O)/C=C/c1ccc(O)c(O)c1; target = Protein kinase C alpha type (PRKCA, Homo sapiens, UniProt P17252); assay = membrane translocation, immunoblotting; system = MDA-MB-231; conditions = IC50, 30 min; scale = relative to: untreated; measurement = cytosolic PKC alpha; result = 8.2 ± 0.9%
SMILES = OC[C@H]1O[C@@H](Sc2ccccc2)[C@H](O)[C@@H](O)[C@@H]1O; target = Sodium/glucose cotransporter 2 (SLC5A2, Homo sapiens, UniProt P31639); assay = membrane depolarization, substrate, FRET; system = CHO expressing hSGLT2; conditions = 10 µM; scale = relative to: non-transfected CHO cells; measurement = fluorescence ratio; result = 1.29
SMILES = CC12CC3CC(C)(C1)CC(NC(=O)Nc1ccc(C(=O)N4CCC(C(N)=O)CC4)cc1)(C3)C2; target = EPHX2; measurement = lipophilic ligand efficiency; result = 6.62
SMILES = CC(=O)C12NC(C)(C)CC1(C)C(=O)C1=C2c2c(c3c4n2C(C)(C)CC2=C4C4(CC(C)(C)NC(C)(C4)C2=O)CC3(C)C)C(=O)C(C)(C)N1 (single isomer, unassigned; (-)); target = Delta-type opioid receptor (OPRD1, Homo sapiens, UniProt P41143); assay = agonist, cAMP; system = CHO; conditions = concentration not given; measurement = agonist activity; result = inactive
SMILES = CCCCCCCC(=O)Nc1ccc(N(C)C)nc1C; target = CES2; assay = substrate; conditions = 50 µM, pH 8, 37 °C, enzyme purity 4%; measurement = specific activity; result = 42 pmol/min/µg
SMILES = CCCCCCSc1nc2c([nH]1)c(=S)n(C)c(=S)n2C; target = PGR; assay = reporter gene, antagonist, MMTV-luciferase; system = T47D/A1-2; conditions = 10 µM, 24 h, together with: 5 nM progesterone; scale = relative to: maximal activity; measurement = remaining activity; result = 106%
SMILES = C=CC(=O)N1C[C@H](C)N(c2nc(OC[C@@]34CCCN3C[C@H](F)C4)nc3c(F)c(-c4ccc(F)c5sc(N)nc45)c(C(F)(F)F)cc23)C[C@H]1C; target = GTPase KRas, GTP-bound (KRAS, Homo sapiens, UniProt P01116, C118S/G12C); assay = MALDI-TOF MS; conditions = 15 min, together with: GTP-loaded protein; measurement = covalent modification; result = 38%
SMILES = CC(C)CN(CC(C)C)C(=O)/C=C/C=C/c1ccc2c(c1)OCO2; target = Gamma-aminobutyric acid receptor subunit alpha-1/beta-3 (Gabra1/Gabrb3, Rattus norvegicus, UniProt P62813+P63079); assay = GABA current potentiation, positive modulator, two-electrode voltage clamp; system = Xenopus oocytes expressing α1β3; conditions = together with: GABA EC3-7; measurement = Hill coefficient; result = 1.5 ± 0.3
SMILES = CC1(CCCN2CCN(c3ccccn3)CC2)Cc2cc(Cl)ccc2C1=O (centres unmarked); target = 5-hydroxytryptamine receptor 1A (HTR1A, Homo sapiens, UniProt P08908); assay = binding, radioligand binding; system = HEK293, membranes; conditions = together with: [3H]8-OH-DPAT; measurement = Hill slope; result = -0.53 ± 0.03
SMILES = COc1ccc(C)cc1-c1ccc2[nH]c3ncc(/C=C/c4ccccc4)cc3c2c1; target = ALK tyrosine kinase receptor (ALK, Homo sapiens, UniProt Q9UM73); assay = ELISA kinase; conditions = together with: ATP 300 µM; measurement = IC50; result = inactive
SMILES = COc1cc(C2CC(=O)Nc3nc(N)[nH]c(=O)c32)ccc1O (centres unmarked); target = uncharacterized protein (Leishmania donovani, UniProt A0A3Q8IA09); assay = competitive ITC; conditions = together with: glutamate 60 µM; measurement = TΔS; result = -8.88 kcal/mol
SMILES = CCCCCCC(=O)Nc1ccc(OC)nc1C; target = CES2; assay = substrate; conditions = 50 µM, pH 8, 37 °C, enzyme purity 4%; measurement = specific activity; result = 28 pmol/min/µg
SMILES = CCCCCCCCNP(=O)(OCCCCCCCC)O[C@@H]1O[C@H](CO)[C@@H](O)[C@H](O)[C@H]1F (mixture of isomers); target = Lysosomal acid glucosylceramidase (GBA1, Homo sapiens, UniProt P04062); assay = enzyme activity, irreversible inhibitor; conditions = pH 5.5, 37 °C, together with: 2,4-dinitrophenyl beta-D-glucopyranoside; measurement = kinact/Ki; result = 658 M⁻¹ s⁻¹
SMILES = CC1=C(/C=C/C(C)=C/C=C/C(C)=C/C=O)C(C)(C)CCC1; target = Cyclic nucleotide-gated channel alpha-1 (CNGA1, Bos taurus, UniProt Q00194); assay = ion current, inhibitor, inside-out patch clamp; conditions = 400 nM, together with: cGMP 2 mM; measurement = fast time constant of inhibition; result = 119 s
SMILES = O=c1ncccn1[C@H]1C[C@H](O)[C@@H](CO)O1; target = Cytidine deaminase (CDA, Homo sapiens, UniProt P32320); conditions = together with: deoxycytidine; measurement = Km/Ki ratio; result = 24
SMILES = CCc1cc(C)nc2c(CC(=O)N(CC)CC)c(-c3ccc(OCC[18F])cc3)nn12; target = Translocator protein (Tspo, Rattus norvegicus, UniProt P16257); assay = PET; system = rat, C6 glioma, tumour; conditions = 60 min; measurement = tumour uptake, non-displaced tracer; result = ~0.2 %ID/cc
SMILES = CCC(=O)N1CCN(C(=O)c2ccc(NC(=O)NC34CC5CC(C)(CC(C)(C5)C3)C4)cc2)CC1; target = EPHX2; measurement = lipophilic ligand efficiency; result = 6.21
SMILES = Cn1c(=S)c2[nH]c(SCCCc3ccccc3)nc2n(C)c1=O; target = Glucocorticoid receptor (Nr3c1, Rattus norvegicus, UniProt P06536); assay = reporter gene, antagonist, MMTV-luciferase; system = T47D/A1-2; conditions = 10 µM, 24 h, together with: 5 nM dexamethasone; scale = relative to: maximal activity; measurement = remaining activity; result = 45%
SMILES = COC1CN([C@H]2CC[C@H]([C@@]3(C)Oc4c(Cl)cc(C(=O)NCc5c(SC)cc(C)[nH]c5=O)c(C)c4O3)CC2)C1; target = Histone-lysine N-methyltransferase EZH2 (EZH2, Homo sapiens, UniProt Q15910); assay = TR-FRET dissociation; measurement = residence time; result = ~96 days
SMILES = COCCOC(=O)Nc1ccc2c(c1)c(Cc1ccc(C(=O)NS(=O)(=O)c3ccc(C(F)(F)F)cc3)cc1OC)cn2C; target = Tumor necrosis factor receptor superfamily member 1A (Homo sapiens, UniProt P19438); assay = TNF-induced IκB degradation, inhibitor; system = HEK293 cells; conditions = 0.01 to 500 nM; measurement = IκB degradation; result = inhibited
SMILES = Cn1c(=S)c2[nH]c(SCCc3ccccc3)nc2n(C)c1=O; target = PGR; assay = reporter gene, antagonist, MMTV-luciferase; system = T47D/A1-2; conditions = 10 µM, 24 h, together with: 5 nM progesterone; scale = relative to: maximal activity; measurement = remaining activity; result = 15%
SMILES = CC(C)CC(NC(=O)C(NC(=O)NC(C(=O)O)C(C)C)C1CCNC(=N)N1)C(=O)NCCCNC(C(=O)O)C(OC1OC(CN)C(O)C1O)C1OC(n2ccc(=O)[nH]c2=O)C(O)C1O (centres unmarked); target = Phospho-N-acetylmuramoyl-pentapeptide-transferase (mraY, Aquifex aeolicus, UniProt O66465, N255A); assay = ITC; conditions = N255A mutant; measurement = ΔH; result = -7.6 ± 0.3 kcal/mol
SMILES = CC(C)CCC[C@@H](C)[C@H]1CC[C@H]2[C@@H]3CC=C4C[C@@H](OS(=O)(=O)O)CC[C@]4(C)[C@H]3CC[C@]12C; target = Prothrombin (F2, Homo sapiens, UniProt P00734); assay = enzyme activity, inhibitor; conditions = together with: unfractionated heparin 50 µM; measurement = maximal inhibition; result = 69.8 ± 3.1%
SMILES = Fc1ccc(Nc2nc(NC3CCCCC3)c3ccccc3n2)cc1F; target = Beta-2 adrenergic receptor (ADRB2, Homo sapiens, UniProt P07550); assay = cAMP ELISA; system = HEK293, stably expressing target; conditions = 10 µM, 30 min, together with: isoprenaline 1 µM, 10 min; measurement = isoprenaline-stimulated cAMP production; result = no effect
SMILES = N=C(N)NCCC[C@H](NC(=O)[C@H](CC(=O)O)NC(=O)[C@@H]1CSCCC(=O)NCC(=O)N[C@@H](Cc2c[nH]cn2)C(=O)N[C@H](Cc2ccccc2)C(=O)N[C@@H](CCCNC(=N)N)C(=O)N[C@@H](Cc2c[nH]c3ccccc23)C(=O)N1)C(=O)N[C@@H](Cc1ccccc1)C(=O)NCC(N)=O; target = Melanocortin receptor 5 (MC5R, Homo sapiens, UniProt P33032); assay = cAMP accumulation, agonist; system = HEK293 expressing MC5R; conditions = 10 µM; scale = relative to: MT-II; measurement = activation; result = 100%
SMILES = CC1=C(/C=C/C(C)=C/C=C\C(C)=C\CO)C(C)(C)CCC1; target = Sphingolipid delta(4)-desaturase DES1 (DEGS1, Gallus gallus, UniProt Q5F3C1); assay = substrate; system = cell homogenate; measurement = Km; result = 15 to 21 µM
SMILES = N[C@@H](CCC(=O)N[C@@H](CS[Se]Cc1ccc(-c2cccc(C(O)c3ccc(Cl)c(Cl)c3)c2)cc1)C(=O)NCC(=O)O)C(=O)O (some centres unmarked); target = Receptor-type tyrosine-protein phosphatase C (PTPRC, Homo sapiens, UniProt P08575); assay = enzyme activity; conditions = together with: pNPP, GSH 1 mM; scale = relative to: IC50 PTPRC over STEP; measurement = selectivity ratio; result = > 100
SMILES = CC(C)(C)CCN1C[C@@H]2[C@@H](CNC(=O)c3cc(Cl)cc(Cl)c3)[C@@H]2C1.Cl; target = Voltage-dependent T-type calcium channel subunit alpha-1H (CACNA1H, Homo sapiens, UniProt O95180); assay = whole-cell patch clamp; system = HEK-293T, transfected; conditions = 100 nM; measurement = reversal potential; result = 37.2 ± 2.89 mV
SMILES = CCC(C)C(=O)NC1CCN(C(=O)c2ccc(NC(=O)NC34CC5CC(C)(CC(C)(C5)C3)C4)cc2)CC1 (centres unmarked); target = EPHX2; measurement = lipophilic ligand efficiency; result = 5.63
SMILES = S=C(Nc1cc(Cl)cc(Cl)c1)Nc1cccc2[nH]ccc12; target = Alpha-synuclein (SNCA, Homo sapiens, UniProt P37840); assay = fibril formation, ThT fluorescence kinetics; conditions = 100 µM, α-syn 2 µM, plateau phase; scale = relative to: DMSO vehicle; measurement = maximum ThT fluorescence; result = 19 ± 2%
SMILES = N#CCCN1CCN(C(=S)c2ccc(-c3cc(Cl)ccc3Cl)o2)CC1; target = Atrial natriuretic peptide receptor 2 (NPR2, Homo sapiens, UniProt P20594); assay = HTRF, measured: cGMP; system = HEK293 overexpressing GC-B; conditions = together with: subthreshold CNP; scale = relative to: saturating CNP; measurement = Emax; result = 137%
SMILES = COc1cc(N2CCN(C(=O)C3CCCN3)CC2)ccc1Nc1ncc(Cl)c(Nc2ccccc2P(C)(C)=O)n1 (centres unmarked); target = ALK tyrosine kinase receptor, EML4-ALK fusion (ALK, Homo sapiens, UniProt Q9UM73); assay = degrader; system = NCI-H3122; conditions = 0.5 µM; measurement = Dmax; result = 82%

Repeated from above:
SMILES = COc1ccc(C)cc1-c1ccc2[nH]c3ncc(/C=C/c4ccccc4)cc3c2c1; target = ALK tyrosine kinase receptor (ALK, Homo sapiens, UniProt Q9UM73); assay = ELISA kinase; conditions = together with: ATP 300 µM; measurement = IC50; result = inactive
SMILES = COc1cc(C2CC(=O)Nc3nc(N)[nH]c(=O)c32)ccc1O (centres unmarked); target = uncharacterized protein (Leishmania donovani, UniProt A0A3Q8IA09); assay = competitive ITC; conditions = together with: glutamate 60 µM; measurement = TΔS; result = -8.88 kcal/mol
